{"data": "Results collected from several papers", "note": "Each line is one published result; not all experiments were run side by side. Values joined by “and” are separate records of one study, mostly repeats; a detail may differ. Numbers after ± are the reported error."}
{"Structure (SMILES)": "Cc1cc(C(C)(C)c2ccc(O)c(C)c2)ccc1O", "cell line": "HepG2 spheroids", "test": "Hoechst flow cytometry", "setting": "40 µM, 24 h", "measurement": "G1 phase cells", "value": "73.3 ± 5.24%"}
{"Structure (SMILES)": "CC(C)N1CCC(NC2CCN(c3cccc(-c4cc5cc(F)ccc5[nH]4)c3)CC2)CC1", "cell line": "M14", "measurement": "GI50", "value": "1.75 µM"}
{"Structure (SMILES)": "Cc1cnc2ccc3c(nc(N)n3C)c2n1", "cell line": "BALB/c 3T3", "test": "colony forming efficiency", "setting": "100 µM", "measurement": "colony number", "value": "96 colonies per plate and 82 colonies per plate and 89 colonies per plate"}
{"Structure (SMILES)": "Nc1nc2nc[nH]c2c(=S)[nH]1", "cell line": "HCT-116 3-6", "test": "clonogenic", "setting": "0.3125 µM, 10 days", "measurement": "surviving fraction", "value": 1.03}
{"Structure (SMILES)": "COc1cc(CCC[P+](c2ccccc2)(c2ccccc2)c2ccccc2)c(OC)c2c1OCO2.[I-]", "cell line": "EKVX", "test": "SRB", "measurement": "GI50", "value": "-5.55 log M"}
{"Structure (SMILES)": "COc1ccc([C@H]2c3[nH]c4ccc(Cl)cc4c3CCN2C(=O)Oc2ccc(Cl)cc2)cc1", "cell line": "human dermal fibroblasts with PBMC", "test": "cytokine secretion, measured: sVEGF", "setting": "0.01 µM, 48 h", "measurement": "inhibition", "value": "84%"}
{"Structure (SMILES)": "CCN(CC)c1ccc(C=NNC(=O)CSc2nc3ccccc3c(=O)n2Cc2ccc(S(N)(=O)=O)cc2)c(O)c1", "cell line": "HOP-92", "test": "NCI five-dose screen", "measurement": "CC50", "value": "> 100 µM"}
{"Structure (SMILES)": "C[C@]12CC[C@H](O)C[C@H]1CC[C@@H]1[C@@H]2CC[C@]2(C)[C@@H](c3ccc(=O)oc3)CC[C@]12O", "cell line": "MCF7", "test": "RT-qPCR, measured: NRIP1", "setting": "20 nM, 48 h, unit not given, added: estradiol", "scale": "relative to: untreated", "measurement": "mRNA level", "value": "1.76 and 1.66 and 2.07"}
{"Structure (SMILES)": "Nc1ncnc2c1ncn2[C@@H]1O[C@@H]2COP(=O)(O)O[C@H]3[C@@H](O)[C@H](n4cnc5c(=O)[nH]cnc54)O[C@@H]3COP(=O)(O)O[C@H]2[C@H]1O", "cell line": "HFF-1", "test": "RNA sequencing, measured: Reactome Signaling by Interleukins", "setting": "upregulated pathways", "scale": "relative to: mock", "measurement": "fold enrichment", "value": 3.05}
{"Structure (SMILES)": "Cn1cncc1C1=CN(c2ncnc3[nH]cnc23)CCS1", "cell line": "EKVX", "setting": "lung cancer", "measurement": "CC50", "value": "> 200 µM"}
{"Structure (SMILES)": "O=[N+]([O-])c1ccc(Cl)cc1", "cell line": "human cells", "test": "reporter gene, agonist, luciferase reporter", "scale": "relative to: positive control", "measurement": "fitted curve top", "value": "0%"}
{"Structure (SMILES)": "O=C1CCP(c2ccccc2)CC1", "cell line": "HCT-116", "test": "MTT", "setting": "72 h", "scale": "relative to: IC50 HaCaT over IC50 HCT-116", "measurement": "selectivity index", "value": 0.7}
{"Structure (SMILES)": "CN1C(=O)[C@@]23C[C@]4([C@]56C[C@@]78SS[C@@](CO)(C(=O)N7[C@H]5Nc5ccccc56)N(C)C8=O)c5ccccc5N[C@@H]4N2C(=O)[C@]1(CO)SS3", "cell line": "OCI-Ly1", "setting": "1 µM, 120 h", "measurement": "viability", "value": "0.477%"}
{"Structure (SMILES)": "CN1CCN(C2(CNC3CCN(c4cccc(-c5cc6cc(F)ccc6[nH]5)c4)CC3)CCC2)CC1", "cell line": "UACC-257", "measurement": "CC50", "value": "7.15 µM"}
{"Structure (SMILES)": "COc1c(C)c2c(c(O)c1C/C=C(\\C)CCC(=O)O)C(=O)OC2", "cell line": "COLO-678", "test": "cell proliferation", "system": "colon cancer", "measurement": "IC50", "value": "2.69 µM"}
{"Structure (SMILES)": "Cc1n[nH]c(C)c1CSC1CCCCC1", "cell line": "U-937", "test": "cytotoxicity", "scale": "relative to: IC50 HEK293 over IC50 U-937", "measurement": "selectivity index", "value": 1.6}
{"Structure (SMILES)": "COc1c(CCC[P+](c2ccccc2)(c2ccccc2)c2ccccc2)cc2c(c1OC)OCO2.[I-]", "cell line": "EKVX", "test": "SRB", "measurement": "TGI", "value": "-4.29 log M"}
{"Structure (SMILES)": "Nc1ncc(-c2nc(N3CCOCC3)nc(N3CCOCC3)n2)c(C(F)F)n1", "cell line": "A-375", "setting": "72 h", "measurement": "GI50", "value": "0.269 µM"}
{"note": "Some of these lines once more:"}
{"Structure (SMILES)": "COc1ccc([C@H]2c3[nH]c4ccc(Cl)cc4c3CCN2C(=O)Oc2ccc(Cl)cc2)cc1", "cell line": "human dermal fibroblasts with PBMC", "test": "cytokine secretion, measured: sVEGF", "setting": "0.01 µM, 48 h", "measurement": "inhibition", "value": "84%"}
{"Structure (SMILES)": "CCN(CC)c1ccc(C=NNC(=O)CSc2nc3ccccc3c(=O)n2Cc2ccc(S(N)(=O)=O)cc2)c(O)c1", "cell line": "HOP-92", "test": "NCI five-dose screen", "measurement": "CC50", "value": "> 100 µM"}
